Published values gathered from unrelated publications.
Compare with care: the assays were run in different laboratories. Values joined by “and” are separate records of one study, mostly repeats; a detail may differ. ± marks the error that the study gave.
Chymotrypsinogen A: Chymotrypsinogen A (Bos taurus, UniProt P00766)
SIGMAR1: Sigma non-opioid intracellular receptor 1 (SIGMAR1, Homo sapiens, UniProt Q99720)
Chain of UniProt Q99720 (whole entry, looked up): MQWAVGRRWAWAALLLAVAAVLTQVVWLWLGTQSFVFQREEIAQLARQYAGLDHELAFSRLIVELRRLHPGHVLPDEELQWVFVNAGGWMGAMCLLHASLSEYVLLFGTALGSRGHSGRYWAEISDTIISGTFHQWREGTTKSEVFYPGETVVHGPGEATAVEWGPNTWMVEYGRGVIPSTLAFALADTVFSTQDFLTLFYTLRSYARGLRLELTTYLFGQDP
ache: Acetylcholinesterase (ache, Electrophorus electricus, UniProt O42275)
Chain of UniProt O42275 (whole entry, looked up): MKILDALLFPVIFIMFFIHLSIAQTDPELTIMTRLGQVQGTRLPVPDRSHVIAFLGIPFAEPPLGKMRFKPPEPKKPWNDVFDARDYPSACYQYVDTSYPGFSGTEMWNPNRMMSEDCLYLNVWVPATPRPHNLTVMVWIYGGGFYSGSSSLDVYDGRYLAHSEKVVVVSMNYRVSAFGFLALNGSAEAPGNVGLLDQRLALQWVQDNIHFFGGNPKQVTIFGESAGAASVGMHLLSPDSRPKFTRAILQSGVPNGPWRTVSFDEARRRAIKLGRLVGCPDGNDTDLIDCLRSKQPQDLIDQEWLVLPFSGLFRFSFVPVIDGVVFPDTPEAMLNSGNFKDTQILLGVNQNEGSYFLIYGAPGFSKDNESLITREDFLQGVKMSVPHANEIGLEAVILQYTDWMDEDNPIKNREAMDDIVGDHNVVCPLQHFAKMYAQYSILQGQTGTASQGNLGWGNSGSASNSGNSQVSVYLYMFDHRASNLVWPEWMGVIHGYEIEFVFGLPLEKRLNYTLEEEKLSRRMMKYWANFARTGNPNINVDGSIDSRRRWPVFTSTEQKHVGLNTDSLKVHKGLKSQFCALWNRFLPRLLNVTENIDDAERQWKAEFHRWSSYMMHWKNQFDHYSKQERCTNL
OPRK1: Kappa-type opioid receptor (OPRK1, Homo sapiens, UniProt P41145)
Chain of UniProt P41145 (whole entry, looked up): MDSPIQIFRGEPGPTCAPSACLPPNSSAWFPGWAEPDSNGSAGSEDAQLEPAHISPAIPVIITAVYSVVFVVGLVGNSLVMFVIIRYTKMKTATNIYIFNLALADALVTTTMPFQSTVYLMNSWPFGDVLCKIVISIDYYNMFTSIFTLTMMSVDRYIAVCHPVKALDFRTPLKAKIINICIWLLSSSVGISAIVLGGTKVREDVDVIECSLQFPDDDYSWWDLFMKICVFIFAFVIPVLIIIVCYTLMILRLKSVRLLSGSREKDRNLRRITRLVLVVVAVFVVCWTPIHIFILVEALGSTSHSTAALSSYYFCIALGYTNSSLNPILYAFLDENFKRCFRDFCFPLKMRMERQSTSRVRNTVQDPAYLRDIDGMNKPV
SLC6A3: Sodium-dependent dopamine transporter (SLC6A3, Homo sapiens, UniProt Q01959)
Chain of UniProt Q01959 (whole entry, looked up): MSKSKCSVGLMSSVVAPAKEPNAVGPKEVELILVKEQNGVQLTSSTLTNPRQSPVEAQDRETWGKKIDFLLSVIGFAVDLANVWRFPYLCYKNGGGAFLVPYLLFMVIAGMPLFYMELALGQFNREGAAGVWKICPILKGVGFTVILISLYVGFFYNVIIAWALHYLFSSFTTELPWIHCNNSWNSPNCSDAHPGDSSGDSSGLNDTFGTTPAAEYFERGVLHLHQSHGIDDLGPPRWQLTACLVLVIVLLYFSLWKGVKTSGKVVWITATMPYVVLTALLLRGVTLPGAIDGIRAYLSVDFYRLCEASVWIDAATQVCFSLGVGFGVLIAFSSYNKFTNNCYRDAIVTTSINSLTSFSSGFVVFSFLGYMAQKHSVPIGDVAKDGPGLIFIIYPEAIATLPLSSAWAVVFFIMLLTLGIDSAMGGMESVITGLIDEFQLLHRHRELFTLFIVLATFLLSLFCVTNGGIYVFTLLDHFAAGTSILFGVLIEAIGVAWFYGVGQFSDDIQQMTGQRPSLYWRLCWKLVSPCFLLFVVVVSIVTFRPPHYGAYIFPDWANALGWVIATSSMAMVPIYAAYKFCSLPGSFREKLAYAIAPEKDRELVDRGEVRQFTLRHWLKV
Chain of UniProt O95665 (whole entry, looked up): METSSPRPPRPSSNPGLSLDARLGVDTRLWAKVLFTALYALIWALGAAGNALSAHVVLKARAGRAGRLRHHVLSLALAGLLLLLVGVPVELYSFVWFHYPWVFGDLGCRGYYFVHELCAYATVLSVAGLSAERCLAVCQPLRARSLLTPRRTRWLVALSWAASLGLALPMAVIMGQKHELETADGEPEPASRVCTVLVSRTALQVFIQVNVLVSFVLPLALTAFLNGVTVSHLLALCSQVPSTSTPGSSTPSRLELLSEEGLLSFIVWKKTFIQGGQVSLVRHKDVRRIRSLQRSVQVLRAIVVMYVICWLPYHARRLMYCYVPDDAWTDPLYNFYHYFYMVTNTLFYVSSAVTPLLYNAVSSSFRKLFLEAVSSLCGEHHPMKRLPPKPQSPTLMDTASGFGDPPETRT
Chain of UniProt Q86X55 (whole entry, looked up): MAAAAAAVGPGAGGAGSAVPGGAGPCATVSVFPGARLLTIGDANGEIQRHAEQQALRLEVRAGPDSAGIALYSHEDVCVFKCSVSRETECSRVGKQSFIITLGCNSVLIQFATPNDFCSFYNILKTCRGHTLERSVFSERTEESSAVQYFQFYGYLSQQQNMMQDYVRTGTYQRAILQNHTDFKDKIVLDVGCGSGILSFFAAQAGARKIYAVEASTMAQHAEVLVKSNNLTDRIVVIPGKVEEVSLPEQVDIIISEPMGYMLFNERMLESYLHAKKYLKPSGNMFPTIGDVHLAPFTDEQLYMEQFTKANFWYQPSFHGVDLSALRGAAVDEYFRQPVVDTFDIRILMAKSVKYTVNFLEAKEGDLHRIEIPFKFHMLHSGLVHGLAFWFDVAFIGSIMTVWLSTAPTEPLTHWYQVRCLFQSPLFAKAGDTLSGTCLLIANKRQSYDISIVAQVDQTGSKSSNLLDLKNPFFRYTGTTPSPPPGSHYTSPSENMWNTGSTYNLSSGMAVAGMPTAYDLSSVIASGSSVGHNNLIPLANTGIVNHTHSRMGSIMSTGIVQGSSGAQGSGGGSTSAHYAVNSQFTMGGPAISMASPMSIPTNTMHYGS
Chain of UniProt P42336 (whole entry, looked up): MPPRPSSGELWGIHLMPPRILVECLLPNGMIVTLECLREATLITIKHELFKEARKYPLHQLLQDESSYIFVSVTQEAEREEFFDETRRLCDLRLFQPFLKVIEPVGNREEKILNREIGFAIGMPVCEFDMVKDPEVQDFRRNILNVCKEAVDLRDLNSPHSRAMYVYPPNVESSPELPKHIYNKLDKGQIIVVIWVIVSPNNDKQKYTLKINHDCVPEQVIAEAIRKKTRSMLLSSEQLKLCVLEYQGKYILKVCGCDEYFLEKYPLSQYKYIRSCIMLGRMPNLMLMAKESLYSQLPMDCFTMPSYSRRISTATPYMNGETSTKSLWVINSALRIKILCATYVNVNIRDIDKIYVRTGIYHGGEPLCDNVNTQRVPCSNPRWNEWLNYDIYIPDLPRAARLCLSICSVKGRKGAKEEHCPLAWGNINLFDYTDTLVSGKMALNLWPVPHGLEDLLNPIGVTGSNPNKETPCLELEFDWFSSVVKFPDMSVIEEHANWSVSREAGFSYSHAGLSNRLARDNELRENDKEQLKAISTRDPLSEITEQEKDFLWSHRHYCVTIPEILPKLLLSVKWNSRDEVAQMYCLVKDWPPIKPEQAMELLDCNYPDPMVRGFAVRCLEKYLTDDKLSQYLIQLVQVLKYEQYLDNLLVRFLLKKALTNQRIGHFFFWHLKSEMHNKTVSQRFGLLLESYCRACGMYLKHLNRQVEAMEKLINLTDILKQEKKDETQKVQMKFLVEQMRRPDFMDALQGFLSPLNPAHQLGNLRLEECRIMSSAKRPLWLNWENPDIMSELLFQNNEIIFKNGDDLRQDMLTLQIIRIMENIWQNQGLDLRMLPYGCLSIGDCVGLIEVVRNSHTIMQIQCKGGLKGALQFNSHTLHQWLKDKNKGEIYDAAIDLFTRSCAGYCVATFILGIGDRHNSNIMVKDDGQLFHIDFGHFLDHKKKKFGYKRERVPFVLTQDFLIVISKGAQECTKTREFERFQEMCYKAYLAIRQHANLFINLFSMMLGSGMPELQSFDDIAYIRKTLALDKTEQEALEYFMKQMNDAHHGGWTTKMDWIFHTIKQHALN
Chain of UniProt P46098 (whole entry, looked up): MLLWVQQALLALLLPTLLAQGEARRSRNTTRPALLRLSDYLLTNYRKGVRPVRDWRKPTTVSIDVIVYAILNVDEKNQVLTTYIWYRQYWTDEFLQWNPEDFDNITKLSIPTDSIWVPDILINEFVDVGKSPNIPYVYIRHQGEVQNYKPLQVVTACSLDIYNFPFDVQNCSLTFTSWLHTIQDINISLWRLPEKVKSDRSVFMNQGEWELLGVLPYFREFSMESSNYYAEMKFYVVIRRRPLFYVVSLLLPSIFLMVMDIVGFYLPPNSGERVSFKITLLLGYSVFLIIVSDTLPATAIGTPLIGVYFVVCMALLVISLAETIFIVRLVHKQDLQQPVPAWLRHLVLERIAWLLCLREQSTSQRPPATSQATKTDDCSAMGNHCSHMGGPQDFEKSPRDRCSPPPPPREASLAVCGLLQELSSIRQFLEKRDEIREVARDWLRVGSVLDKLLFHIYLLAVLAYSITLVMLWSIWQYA
Chain of UniProt P34969 (whole entry, looked up): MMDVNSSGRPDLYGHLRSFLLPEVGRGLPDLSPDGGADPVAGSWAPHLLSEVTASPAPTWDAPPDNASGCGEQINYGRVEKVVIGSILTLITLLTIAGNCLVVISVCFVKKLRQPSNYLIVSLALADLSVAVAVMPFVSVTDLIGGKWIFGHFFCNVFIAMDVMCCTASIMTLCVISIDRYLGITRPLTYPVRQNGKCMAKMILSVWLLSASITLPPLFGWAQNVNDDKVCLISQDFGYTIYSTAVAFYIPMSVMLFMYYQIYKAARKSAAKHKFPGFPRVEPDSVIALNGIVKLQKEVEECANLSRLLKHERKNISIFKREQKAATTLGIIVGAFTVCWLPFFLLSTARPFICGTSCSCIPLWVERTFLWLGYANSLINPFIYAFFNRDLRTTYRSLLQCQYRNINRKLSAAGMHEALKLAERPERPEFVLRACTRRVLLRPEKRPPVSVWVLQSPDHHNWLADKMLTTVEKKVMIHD

SMILES	target	test	test system	setting	Ki
C[C@@H](Cc1ccsc1)NC(=O)NC[C@H](Cc1ccc(O)cc1)N(C)C	Neurotensin receptor type 2 (NTSR2, Homo sapiens, UniProt O95665)	–	–	–	> 50000 nM
CCCCc1ccc(/N=N/c2cccc([B-](F)(F)F)c2)cc1	Chymotrypsinogen A	enzyme activity, competitive inhibitor	buffer with 2 vol% DMSO	pH 7.81, 25 °C, thermally adapted trans state, added: Suc-AAPF-AMC	286000 nM and 285000 nM
COc1ccccc1COc1ccc2c(c1)[C@H]1CCN[C@@]1(C)CO2	SIGMAR1	cell-free assay, radioligand	–	–	4.2 nM
O=S(=O)(N/N=C/c1ccc(OS(=O)(=O)c2cc(Cl)ccc2Cl)cc1)c1cc(Cl)ccc1Cl	ache	enzyme activity, inhibitor, Ellman	–	–	9.58 nM
O=C(Cc1cccc(Cl)c1)N1CCN[C@@H]2COC[C@H](N3CCCC3)[C@H]21 (relative stereo)	OPRK1	cell-free assay	–	–	430 nM
F[B-](F)(F)c1cccc(/N=N/c2ccccc2I)c1	Chymotrypsinogen A	enzyme activity, competitive inhibitor	buffer with 2 vol% DMSO	pH 7.81, 25 °C, thermally adapted trans state, added: Suc-AAPF-AMC	50200 nM
Cc1cc(O)cc(C)c1C[C@H](N)C(=O)N[C@H](CCCNC(=N)N)C(=O)N[C@@H](Cc1ccccc1)C(=O)N(C)CC(=O)N(C)Cc1cc(C(F)(F)F)cc(C(F)(F)F)c1	Delta-type opioid receptor (OPRD1, Homo sapiens, UniProt P41143, G268V)	–	–	–	7.17 ± 1.73 nM
O=C1c2ccccc2CCCN1CCCCN1CCN(c2cccc(Cl)c2Cl)CC1	5-hydroxytryptamine receptor 3A (HTR3A, Homo sapiens, UniProt P46098)	ligand displacement, radioligand	–	–	677 nM
O=S(=O)(N/N=C/c1ccc(OS(=O)(=O)c2ccccc2)cc1)c1ccc(Cl)cc1	ache	enzyme activity, inhibitor, Ellman	–	–	42 nM
CCN(N=Cc1cnc2ccc(Br)cn12)S(=O)(=O)c1cc([N+](=O)[O-])ccc1C	Phosphatidylinositol 4,5-bisphosphate 3-kinase catalytic subunit alpha isoform (PIK3CA, Homo sapiens, UniProt P42336)	enzyme activity, inhibitor	–	non-competitive model, added: ATP substrate	46 ± 5 nM
COc1cc2c(cc1O)C(CCc1ccc(Cl)cc1)N(C)CC2 (stereo not drawn)	Sodium-dependent noradrenaline transporter (SLC6A2, Homo sapiens, UniProt P23975)	cell-free assay, radioligand	–	–	1400 nM
Cc1cc(C)cc(/N=N/c2cccc([B-](F)(F)F)c2)c1	Chymotrypsinogen A	enzyme activity, competitive inhibitor	buffer with 2 vol% DMSO	pH 7.81, 25 °C, thermally adapted trans state, added: Suc-AAPF-AMC	40900 nM and 41000 nM
O=C(Cc1ccc(Cl)c(Cl)c1)N1CCN[C@@H]2COC[C@H](N3CCCC3)[C@H]21	OPRK1	cell-free assay	–	–	50 nM
CC(=O)c1ccc(/N=N/c2cccc([B-](F)(F)F)c2)cc1	Chymotrypsinogen A	enzyme activity, competitive inhibitor	buffer with 2 vol% DMSO	pH 7.81, 25 °C, thermally adapted trans state, added: Suc-AAPF-AMC	122000 nM
C[C@]12COc3ccc(OCCc4ccccc4)cc3[C@H]1CCN2	SIGMAR1	cell-free assay, radioligand	–	–	3.3 nM
COC(=O)[C@H]1[C@@H](c2ccc(Cl)c(Cl)c2)C[C@@H]2CC[C@H]1N2CCCCCc1ccc2cc3ccccc3cc2c1	SLC6A3	ligand displacement, radioligand	–	pH 7.4	14 nM
CC(=O)NCCCC[C@H](NC(=O)[C@H](CCCNC(=N)NCCC[C@H]1O[C@@H](n2cnc3c(N)ncnc32)[C@H](O)[C@@H]1O)NC(=O)[C@@H]1CCCN1C(=O)[C@H](C)NC(=O)[C@H](CCCCN)NC(=O)CNC(=O)CNC(=O)[C@@H](NC(=O)[C@H](CO)NC(C)=O)[C@@H](C)O)C(=O)N[C@@H](CCC(N)=O)C(=O)N[C@@H](CC(C)C)C(=O)N[C@@H](C)C(=O)N[C@H](C(=O)N[C@@H](CCCCN)C(=O)N[C@@H](C)C(=O)N[C@@H](C)C(N)=O)[C@@H](C)O (relative stereo)	Histone-arginine methyltransferase CARM1 (CARM1, Homo sapiens, UniProt Q86X55)	enzyme activity, inhibitor	–	–	28 nM
COC(=O)[C@H]1[C@@H](c2ccc(Cl)cc2)C[C@@H]2CC[C@H]1N2CCCc1ccc2cc3ccccc3cc2c1	SLC6A3	ligand displacement, radioligand	–	pH 7.4	8.7 nM
Cc1ccc(/N=N/c2cccc([B-](F)(F)F)c2)cc1	Chymotrypsinogen A	enzyme activity, competitive inhibitor	buffer with 2 vol% DMSO	pH 7.81, 25 °C, thermally adapted trans state, added: Suc-AAPF-AMC	3040 nM and 3000 nM
O=C(Cc1ccc(Cl)cc1)N1CCN[C@@H]2COC[C@H](N3CCCC3)[C@H]21 (relative stereo)	OPRK1	cell-free assay	–	–	340 nM
COc1ccc2c(c1)c(CCN(C)C)cn2Cc1ccccc1	5-hydroxytryptamine receptor 7, isoform 5-HT7b (HTR7, Homo sapiens, UniProt P34969)	binding, radioligand displacement	HEK293 membranes	1 h, 37 °C, 5-HT7b isoform, added: 0.6 nM [3H]-5-CT	937 ± 72 nM
F[B-](F)(F)c1cccc(/N=N/c2ccccc2)c1	Chymotrypsinogen A	enzyme activity, inhibitor	–	pH 7.81, 25 °C, cis-enriched photostationary state, added: Suc-AAPF-AMC	17100 nM
CC(C)C[C@H](NC(=O)CNC(=O)[C@H](CCC(N)=O)NC(=O)[C@H](CC(C)C)NC(=O)[C@H](CC(C)C)NC(=O)[C@H](CCCNC(=N)N)NC(=O)[C@H](CCC(N)=O)NC(=O)[C@H](Cc1ccc(C(=O)c2ccccc2)cc1)NC(=O)[C@H](CCCNC(=N)N)NC(=O)[C@H](C)NC(=O)[C@H](CO)NC(=O)[C@H](CC(=O)O)NC(=O)[C@H](CCC(N)=O)NC(=O)[C@H](CC(C)C)NC(=O)[C@H](CCCNC(=N)N)NC(=O)[C@H](CO)NC(=O)[C@H](Cc1ccc(O)cc1)NC(=O)[C@H](CCC(=O)O)NC(=O)[C@H](CO)NC(=O)[C@@H](NC(=O)[C@H](Cc1ccccc1)NC(=O)[C@@H](NC(=O)CNC(=O)[C@H](CC(=O)O)NC(=O)[C@H](CO)NC(=O)[C@@H](N)Cc1c[nH]cn1)[C@@H](C)O)[C@@H](C)O)C(=O)N[C@H](C(N)=O)C(C)C	Sctr (Rattus norvegicus, UniProt P23811)	ligand displacement in cells, radioligand	–	–	> 1000 nM
NC1CCSC1=O (stereo not drawn)	Carbonic anhydrase 9 (CA9, Homo sapiens, UniProt Q16790)	CO2 hydration activity, inhibitor, stopped-flow CO2 hydration	–	room temperature preincubation	> 100000 nM
CC[C@H](C)[C@H](NC(=O)[C@H](CCCNC(=N)N)NC(=O)[C@H](CCCNC(=N)N)NC(=O)[C@H](CC(C)C)NC(=O)[C@H](Cc1ccccc1)NC(=O)CNC(=O)CN)C(=O)N[C@@H](CCCNC(=N)N)C(=O)N1CCC[C@H]1C(=O)N[C@@H](CCCCN)C(=O)N[C@@H](CC(C)C)C(=O)N[C@@H](CCCCN)C(=O)N[C@@H](Cc1c[nH]c2ccccc12)C(=O)N[C@@H](CC(=O)O)C(=O)N[C@@H](CC(N)=O)C(=O)N[C@@H](CCC(N)=O)C(=O)O	Probable G-protein coupled receptor 139 (GPR139, Homo sapiens, UniProt Q6DWJ6)	ligand displacement, radioligand	–	cell membranes	12.2 nM
COC(=O)[C@H]1[C@@H](c2ccc(Cl)c(Cl)c2)C[C@@H]2CC[C@H]1N2CCOc1c2ccccc2cc2ccccc12	SLC6A3	ligand displacement, radioligand	–	pH 7.4	8.3 nM
COc1ccccc1/N=N/c1cccc([B-](F)(F)F)c1	Chymotrypsinogen A	enzyme activity, inhibitor	–	pH 7.81, 25 °C, cis-enriched photostationary state, added: Suc-AAPF-AMC	114000 nM

Repeated from above:
SMILES	target	test	test system	setting	Ki
Cc1cc(C)cc(/N=N/c2cccc([B-](F)(F)F)c2)c1	Chymotrypsinogen A	enzyme activity, competitive inhibitor	buffer with 2 vol% DMSO	pH 7.81, 25 °C, thermally adapted trans state, added: Suc-AAPF-AMC	40900 nM and 41000 nM
